{"data": "Results pooled from the literature", "note": "Numbered parts are unrelated; each lists some results of a single study. Changes are numbered by the printed parent chain."}
{"data": "Series 1", "target": "ABI1, truncated, D143A, DHFR fusion (Arabidopsis thaliana)", "technique": "DHFR PCA, deep sequencing", "matrix": "yeast", "notes": "methotrexate growth selection, single substitutions", "with": "(+)-ABA 17 µM", "reference": "wild-type fitted maximum", "reading": "higher = stronger binding", "parent": "PYL1, truncated, DHFR fusion (Arabidopsis thaliana); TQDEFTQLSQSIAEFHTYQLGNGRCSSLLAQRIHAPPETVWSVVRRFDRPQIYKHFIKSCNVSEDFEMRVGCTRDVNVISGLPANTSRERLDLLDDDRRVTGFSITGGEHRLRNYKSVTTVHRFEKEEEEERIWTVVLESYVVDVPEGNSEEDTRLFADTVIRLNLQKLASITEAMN; partner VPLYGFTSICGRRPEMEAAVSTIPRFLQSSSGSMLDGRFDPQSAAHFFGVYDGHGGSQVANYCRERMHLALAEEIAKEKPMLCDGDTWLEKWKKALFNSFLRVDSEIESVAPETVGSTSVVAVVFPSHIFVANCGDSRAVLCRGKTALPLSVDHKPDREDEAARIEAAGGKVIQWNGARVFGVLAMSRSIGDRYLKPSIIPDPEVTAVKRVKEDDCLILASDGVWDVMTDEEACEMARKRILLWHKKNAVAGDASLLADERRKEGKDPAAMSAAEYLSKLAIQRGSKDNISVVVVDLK"}
{"Change": "S9E", "relative binding score [%]": 85.7}
{"Change": "N61S", "relative binding score [%]": 91.3}
{"Change": "N114R", "relative binding score [%]": 44}
{"Change": "S104Q", "relative binding score [%]": 10.7}
{"Change": "Y115S", "relative binding score [%]": -9.83}
{"Change": "E125W", "relative binding score [%]": 72.4}
{"Change": "V143N", "relative binding score [%]": 1.01}
{"Change": "D144H", "relative binding score [%]": 7.54}
{"Change": "T160D", "relative binding score [%]": -5.41}
{"Change": "H34D", "relative binding score [%]": 85.5}
{"data": "Series 2", "target": "DBP, bZIP domain (human)", "technique": "DHFR protein complementation", "matrix": "yeast", "notes": "single substitutions, most at no-binding floor", "reference": "wild-type JUN-FOS pair", "reading": "higher = stronger binding", "parent": "JUN, bZIP domain (human); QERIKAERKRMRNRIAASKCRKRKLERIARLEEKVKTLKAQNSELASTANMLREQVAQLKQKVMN; partner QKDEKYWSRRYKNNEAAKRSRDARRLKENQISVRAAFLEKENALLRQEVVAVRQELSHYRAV"}
{"Change": "A49E", "binding fitness [natural log]": -1.54}
{"Change": "R30W", "binding fitness [natural log]": -1.5}
{"Change": "S47E", "binding fitness [natural log]": -1.54}
{"Change": "K34G", "binding fitness [natural log]": -1.39}
{"Change": "N42S", "binding fitness [natural log]": -1.54}
{"Change": "E32L", "binding fitness [natural log]": -1.39}
{"Change": "L52V", "binding fitness [natural log]": -1.51}
{"Change": "A29C", "binding fitness [natural log]": -1.54}
{"Change": "V56G", "binding fitness [natural log]": -1.47}
{"Change": "L45M", "binding fitness [natural log]": -1.42}
{"Change": "L31Y", "binding fitness [natural log]": -1.54}
{"Change": "L52Q", "binding fitness [natural log]": -1.51}
{"Change": "E54D", "binding fitness [natural log]": -1.38}
{"Change": "A49D", "binding fitness [natural log]": -1.56}
{"data": "Series 3", "target": "Histone acetyltransferase KAT6A, winged helix 1, GST fusion (KAT6A, Homo sapiens, UniProt Q92794, residues 1-85)", "technique": "protein binding microarray", "form": "double-stranded DNA, one strand shown", "matrix": "in vitro", "concentration": "not given", "notes": "8-mer, flanks averaged, mean of 2 arrays, mostly near background", "reference": "not given", "reading": "higher = stronger binding", "Construct (chain)": "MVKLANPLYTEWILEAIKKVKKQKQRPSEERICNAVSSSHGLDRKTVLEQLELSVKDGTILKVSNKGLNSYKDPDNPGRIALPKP"}
{"Strand": "AGTCGATA", "E-score": -0.215}
{"Strand": "GAACGAGC", "E-score": -0.0625}
{"Strand": "AAATCATG", "E-score": -0.245}
{"Strand": "GACGCTAA", "E-score": 0.188}
{"Strand": "TATGTGGA", "E-score": -0.171}
{"Strand": "GGCTTGCA", "E-score": -0.0565}
{"Strand": "AGGGCTAT", "E-score": -0.154}
{"Strand": "AGTAAATA", "E-score": -0.103}
{"Strand": "AGACGAAA", "E-score": 0.0363}
{"Strand": "CGTGTGCA", "E-score": -0.0469}
{"Strand": "CGGTCATC", "E-score": 0.197}
{"Strand": "GATTCTCA", "E-score": 0.00787}
{"Strand": "AACGCATT", "E-score": 0.179}
{"Strand": "AGGGCACC", "E-score": -0.114}
{"Strand": "AAGGAAAG", "E-score": -0.0796}
{"data": "Single results of other studies"}
{"Molecule": "PhoQ, residues 284 288 289 292 302 303 AGGCYF", "target": "PhoP, residues 12 14 15 18 19 NNFVT (Escherichia coli, UniProt P23836)", "assay": "Sort-seq, measured: YFP reporter", "test system": "E. coli", "conditions": "PhoQ-PhoP variant library, with: 10 µM Mg2+", "scale": "reference: high Mg2+ state, higher = stronger signaling", "measurement": "fold induction", "value": 0.933}
{"note": "Repeated from above (series 2):"}
{"Change": "L52Q", "binding fitness [natural log]": -1.51}
{"Change": "S47E", "binding fitness [natural log]": -1.54}
